Published values of several laboratories.
Numbered parts are unrelated; each lists some results of a single study. Substitutions count along the parent as printed.

Study 1
Target: Histone acetyltransferase KAT6A, winged helix 2, GST fusion (KAT6A, Homo sapiens, UniProt Q92794, residues 85-181)
Technique: protein binding microarray
Form: double-stranded DNA, one strand shown
Matrix: in vitro
Tested at: not given
Notes: 8-mer, flanks averaged, mean of 2 arrays, mostly near background
Relative to: not given
Direction: higher = stronger binding
Measurement: E-score
Target sequence (chain): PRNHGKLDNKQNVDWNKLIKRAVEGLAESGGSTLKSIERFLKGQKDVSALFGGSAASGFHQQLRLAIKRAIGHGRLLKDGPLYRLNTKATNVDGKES
AATGGACC: 0.00903
CTACACTC: -0.142
GCGGCAAC: 0.152
CAGGCACG: 0.0253
GTTCAGAA: -0.045
GTGTCCGA: -0.0335
CCATGGAG: -0.118
CTCCCGAA: -0.0213
CCGGTTTC: -0.0293
GCGCTTGA: 0.0662
TAAGTGAA: -0.0163
GTTGAACA: 0.0301
AGTGCGAC: 0.0911
ACCGAGGG: -0.0547

Study 2
Target: Prothrombin, mature alpha-thrombin (F2, Homo sapiens, UniProt P00734)
Technique: aptamer microarray, sandwich
Form: DNA with 2'F-ANA
Matrix: in vitro
Tested at: 200 nM
Notes: whole 15-mer aptamer, many near background
Together with: Cy3 exosite-II aptamer, 400 nM
Direction: higher = stronger binding
Measurement: mean fluorescence intensity
Sequence: GGTTGGTGTGGTTGG
2'F-ANA at 1 3 4 9 14 15: 77 a.u.
2'F-ANA at 2 5 6 8 9 10 11 14 15: 47.8 a.u.
2'F-ANA at 1 4 7 8 12 13: 270 a.u.
2'F-ANA at 1 2 5 12 13 14: 48.7 a.u.
2'F-ANA at 1 2 7 8 9 10 12 14 15: 48.9 a.u.
2'F-ANA at 1 2 3 4 5 6 9 10 11 12 14 15: 51.8 a.u.
2'F-ANA at 1 2 5 11 12 15: 81.8 a.u.
2'F-ANA at 1 2 5 6 9 11 12 15: 86.6 a.u.
2'F-ANA at 2 4 5 9 11 12 13 14: 46.9 a.u.
2'F-ANA at 2 5 7 10 11 12 15: 50.5 a.u.
2'F-ANA at 1 6 9 13 14 15: 50.8 a.u.

Study 3
Target: CCND2, cyclin fold, Cln2 fusion (human)
Technique: yeast growth competition, sequencing
Matrix: yeast
Notes: strong parent motif
Relative to: not given
Direction: higher = stronger binding
Measurement: normalised enrichment score
Starting sequence: E2F1 docking peptide (human); PPVKRRLDFETDH
V3C: 1.45
D12F: 1.68
P2G: 1.34
V3E: 0.142
F9W: 0.386
V3H: 0.743
K4P: 0.34
E10D: 2.25
E10S: 2.1
V3S: 1.07
K4S: 1.86
D8P: 0.462
R5H: -0.279
T11I: 2.06
D8A: 1.47

Study 4
Target: Interferon regulatory factor 7, full length, phosphomimetic (IRF7, Homo sapiens, UniProt Q92985, residues 1-503, S471D/S472D/S475D/S476D/S477D/S483D/S484D/S487D)
Technique: protein-binding microarray
Form: double-stranded DNA, one strand shown
Matrix: in vitro
Tested at: 2200 nM top
Notes: 60-bp whole probe
Together with: salmon DNA 0.4 mg/ml
Relative to: random background probes
Direction: higher = stronger binding
Measurement: fitted relative affinity
Constant ends, left off below: GCCTAGCAC … GTCTTGATTCGCTTGACGCTGCTG
Residues (chain): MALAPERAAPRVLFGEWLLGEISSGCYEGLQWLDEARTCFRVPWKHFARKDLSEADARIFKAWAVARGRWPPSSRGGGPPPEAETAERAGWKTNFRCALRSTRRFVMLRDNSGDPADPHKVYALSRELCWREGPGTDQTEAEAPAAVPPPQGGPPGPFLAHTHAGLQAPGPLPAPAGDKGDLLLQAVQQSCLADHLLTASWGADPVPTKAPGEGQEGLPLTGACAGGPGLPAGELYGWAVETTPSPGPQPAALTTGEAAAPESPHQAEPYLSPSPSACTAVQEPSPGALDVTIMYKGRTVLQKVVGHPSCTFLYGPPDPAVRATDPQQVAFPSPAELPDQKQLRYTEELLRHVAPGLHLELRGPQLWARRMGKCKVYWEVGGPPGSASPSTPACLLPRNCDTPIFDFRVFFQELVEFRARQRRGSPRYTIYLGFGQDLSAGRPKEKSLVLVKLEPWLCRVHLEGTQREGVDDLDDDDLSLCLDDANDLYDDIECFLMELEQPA
TCACATTGAGATTTCCAACTGTGCTAG: 1.19 z-score
TCAGGTCTTCACTTGGCACTGTGCTAG: 0.514 z-score
GCCGGTTTCCTTCTCCTGACGTGCTAG: 4 z-score
TTAGGTTTCGGGTATCGGTGAGTGCTA: 6 z-score
GACGACCTGAGTTTCGAGACGTGCTAG: 2.01 z-score
GTAGATCTCAGTCTCGATTAGTGCTAG: 0.516 z-score
TTTCATTTTTTTTTTCATCAGTGCTAG: 8.32 z-score
GAAGGACTGGACACTGGGGACGTGCTA: -0.954 z-score
GACGGTTTCGGACTGGGGACGTGCTAG: 3.74 z-score
GACGGTTTCGGATATCGGGACGTGCTA: 3.57 z-score
GACGGACTGCTTCTCCTGCCGTGCTAG: 0.31 z-score

For quick reference, copied from above (study 3):
V3S: 1.07
R5H: -0.279
E10D: 2.25
V3E: 0.142
T11I: 2.06
